Published values pooled from the literature.
Each line is one published result; not all experiments were run side by side. Numbers after ± are the reported error.
4'-phosphopantetheinyl transferase PptT: 4'-phosphopantetheinyl transferase PptT (Mycobacterium tuberculosis, UniProt O33336)
UniProt O33336, sequence (whole entry, looked up): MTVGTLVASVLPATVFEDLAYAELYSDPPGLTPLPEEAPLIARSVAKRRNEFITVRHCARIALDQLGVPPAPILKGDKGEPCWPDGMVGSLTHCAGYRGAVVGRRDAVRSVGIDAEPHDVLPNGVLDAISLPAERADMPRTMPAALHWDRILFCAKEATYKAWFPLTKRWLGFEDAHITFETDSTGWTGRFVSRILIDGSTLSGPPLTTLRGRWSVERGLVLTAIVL
2,3-bisphosphoglycerate-independent phosphoglycerate mutase: 2,3-bisphosphoglycerate-independent phosphoglycerate mutase (Wuchereria bancrofti, UniProt B1P0R4)
gpmI: 2,3-bisphosphoglycerate-independent phosphoglycerate mutase (gpmI, Mycoplasma pneumoniae, UniProt P75167)
UniProt P75167, sequence (whole entry, looked up): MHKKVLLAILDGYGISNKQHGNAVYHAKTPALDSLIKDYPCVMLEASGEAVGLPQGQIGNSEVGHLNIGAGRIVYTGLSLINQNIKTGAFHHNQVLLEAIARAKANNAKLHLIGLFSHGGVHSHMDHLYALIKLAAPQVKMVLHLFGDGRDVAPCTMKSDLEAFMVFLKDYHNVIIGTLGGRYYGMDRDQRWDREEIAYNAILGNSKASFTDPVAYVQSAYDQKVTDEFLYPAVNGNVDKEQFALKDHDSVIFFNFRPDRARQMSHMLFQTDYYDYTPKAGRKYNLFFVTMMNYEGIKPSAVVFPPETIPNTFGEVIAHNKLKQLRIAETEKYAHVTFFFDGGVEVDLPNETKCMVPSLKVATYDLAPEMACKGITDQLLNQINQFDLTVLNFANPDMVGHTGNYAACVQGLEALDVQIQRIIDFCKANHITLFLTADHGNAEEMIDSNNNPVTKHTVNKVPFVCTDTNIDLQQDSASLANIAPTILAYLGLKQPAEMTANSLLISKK
UniProt P33261, sequence (whole entry, looked up): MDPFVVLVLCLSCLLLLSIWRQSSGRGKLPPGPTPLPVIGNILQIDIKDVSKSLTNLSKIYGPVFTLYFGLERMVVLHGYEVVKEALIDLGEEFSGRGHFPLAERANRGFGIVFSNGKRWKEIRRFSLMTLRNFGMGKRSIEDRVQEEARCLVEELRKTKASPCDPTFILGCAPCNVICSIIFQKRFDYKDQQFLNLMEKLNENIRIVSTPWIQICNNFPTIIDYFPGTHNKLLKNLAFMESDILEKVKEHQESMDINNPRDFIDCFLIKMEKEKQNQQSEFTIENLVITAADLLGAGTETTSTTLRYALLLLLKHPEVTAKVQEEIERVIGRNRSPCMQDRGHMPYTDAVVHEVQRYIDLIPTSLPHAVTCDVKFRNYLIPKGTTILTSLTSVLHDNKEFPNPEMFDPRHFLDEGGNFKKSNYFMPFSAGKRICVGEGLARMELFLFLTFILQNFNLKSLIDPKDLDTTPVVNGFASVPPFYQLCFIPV
UniProt P21554, sequence (whole entry, looked up): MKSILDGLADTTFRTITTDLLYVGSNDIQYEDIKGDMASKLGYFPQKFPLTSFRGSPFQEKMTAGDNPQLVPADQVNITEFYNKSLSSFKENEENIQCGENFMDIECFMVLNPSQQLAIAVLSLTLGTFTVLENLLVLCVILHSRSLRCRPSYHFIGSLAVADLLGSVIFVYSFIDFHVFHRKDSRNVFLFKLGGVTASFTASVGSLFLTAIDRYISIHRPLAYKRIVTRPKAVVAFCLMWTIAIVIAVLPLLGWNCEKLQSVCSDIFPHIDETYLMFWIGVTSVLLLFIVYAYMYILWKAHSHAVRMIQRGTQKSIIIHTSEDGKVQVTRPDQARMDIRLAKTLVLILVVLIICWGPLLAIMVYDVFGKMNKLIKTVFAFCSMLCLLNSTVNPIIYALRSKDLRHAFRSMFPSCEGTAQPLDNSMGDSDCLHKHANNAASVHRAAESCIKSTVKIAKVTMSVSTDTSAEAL
UniProt P33033, sequence (whole entry, looked up): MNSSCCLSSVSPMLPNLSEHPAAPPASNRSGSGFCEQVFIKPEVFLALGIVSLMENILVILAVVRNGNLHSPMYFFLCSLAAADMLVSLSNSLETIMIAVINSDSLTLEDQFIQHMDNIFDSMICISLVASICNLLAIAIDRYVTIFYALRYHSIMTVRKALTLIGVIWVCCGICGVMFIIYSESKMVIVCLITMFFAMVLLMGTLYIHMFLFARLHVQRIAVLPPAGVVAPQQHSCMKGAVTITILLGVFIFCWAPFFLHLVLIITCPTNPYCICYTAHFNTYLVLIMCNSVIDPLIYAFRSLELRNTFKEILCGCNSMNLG
UniProt P21709, sequence (whole entry, looked up): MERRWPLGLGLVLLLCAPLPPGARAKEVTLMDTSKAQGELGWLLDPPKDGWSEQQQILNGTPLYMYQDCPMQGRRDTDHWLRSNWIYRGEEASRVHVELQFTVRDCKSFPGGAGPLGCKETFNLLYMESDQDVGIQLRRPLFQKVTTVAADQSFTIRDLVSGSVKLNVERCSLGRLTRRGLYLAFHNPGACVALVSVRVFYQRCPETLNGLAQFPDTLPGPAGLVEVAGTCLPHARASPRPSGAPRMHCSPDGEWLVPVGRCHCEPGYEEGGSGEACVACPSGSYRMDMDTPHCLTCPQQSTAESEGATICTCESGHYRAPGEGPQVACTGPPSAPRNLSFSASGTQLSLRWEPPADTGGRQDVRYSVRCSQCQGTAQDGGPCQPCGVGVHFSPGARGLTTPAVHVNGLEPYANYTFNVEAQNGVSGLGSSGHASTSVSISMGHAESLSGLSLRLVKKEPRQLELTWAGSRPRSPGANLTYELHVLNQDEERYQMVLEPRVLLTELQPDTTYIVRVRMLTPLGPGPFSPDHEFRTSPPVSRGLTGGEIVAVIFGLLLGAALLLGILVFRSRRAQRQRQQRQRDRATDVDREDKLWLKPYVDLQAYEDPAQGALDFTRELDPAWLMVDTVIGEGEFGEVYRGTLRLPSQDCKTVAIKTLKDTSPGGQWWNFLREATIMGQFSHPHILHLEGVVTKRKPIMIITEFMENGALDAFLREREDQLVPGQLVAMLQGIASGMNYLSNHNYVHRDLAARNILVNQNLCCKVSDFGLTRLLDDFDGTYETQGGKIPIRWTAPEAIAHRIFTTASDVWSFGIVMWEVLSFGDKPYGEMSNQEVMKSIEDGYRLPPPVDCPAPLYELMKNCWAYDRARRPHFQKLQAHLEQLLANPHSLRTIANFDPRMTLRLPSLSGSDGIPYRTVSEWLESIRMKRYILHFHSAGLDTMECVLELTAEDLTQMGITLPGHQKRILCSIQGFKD
UniProt P34972, sequence (whole entry, looked up): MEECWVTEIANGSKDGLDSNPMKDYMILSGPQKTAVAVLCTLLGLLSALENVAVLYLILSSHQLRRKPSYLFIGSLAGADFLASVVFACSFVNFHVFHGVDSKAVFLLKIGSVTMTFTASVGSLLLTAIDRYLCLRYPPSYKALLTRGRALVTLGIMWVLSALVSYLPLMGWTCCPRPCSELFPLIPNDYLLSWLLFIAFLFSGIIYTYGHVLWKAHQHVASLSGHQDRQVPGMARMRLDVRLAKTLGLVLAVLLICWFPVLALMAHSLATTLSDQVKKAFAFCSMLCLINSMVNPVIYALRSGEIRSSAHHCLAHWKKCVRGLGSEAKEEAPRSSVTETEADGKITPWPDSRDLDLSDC
UniProt P01902, sequence (whole entry, unmodified, looked up): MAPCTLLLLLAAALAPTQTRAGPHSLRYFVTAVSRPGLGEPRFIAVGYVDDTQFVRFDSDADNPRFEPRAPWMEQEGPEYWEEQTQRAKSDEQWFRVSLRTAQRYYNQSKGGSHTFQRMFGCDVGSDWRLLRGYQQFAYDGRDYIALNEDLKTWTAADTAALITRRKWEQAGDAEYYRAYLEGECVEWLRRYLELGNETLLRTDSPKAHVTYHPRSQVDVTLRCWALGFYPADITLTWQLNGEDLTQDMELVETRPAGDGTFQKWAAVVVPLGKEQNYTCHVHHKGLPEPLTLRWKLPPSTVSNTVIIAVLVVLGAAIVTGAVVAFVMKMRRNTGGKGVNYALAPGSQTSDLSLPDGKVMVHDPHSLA

CC(C)(C)OC(=O)NCCC[C@H](NC(=O)c1ccc(NCc2ccc3nc(N)nc(N)c3c2Cl)cc1)C(=O)O
IC50 (4'-phosphopantetheinyl transferase PptT; enzyme activity, inhibitor, fluorescence polarization; enzyme 100 nM): > 25000 nM

CNC(=O)C1CCN(c2ccccc2NC(=O)c2ccc(-c3cc(O)ccc3C)c(C)n2)CC1
Ki (Ephrin type-A receptor 1 (EPHA1, Homo sapiens, UniProt P21709); cell-free assay, TR-FRET): 4 nM

Cc1nc(=O)c2cc(CN(C)c3ccc(C(=O)NCc4ccccn4)s3)ccc2[nH]1
IC50 (4'-phosphopantetheinyl transferase PptT; enzyme activity, inhibitor, fluorescence polarization; enzyme 100 nM): 2310 nM

CCCCCn1cc(C(=O)c2ccc3c(c2)CC(C)(C)C3)c2ccccc21
EC50 (Cannabinoid receptor 2 (CNR2, Homo sapiens, UniProt P34972); G protein activation, agonist, BRET): 447 nM

Cc1nc(=O)c2cc(CN(C)c3cccc(C(=O)N[C@@]4(C(=O)O)CCC[C@H](C(=O)O)C4)c3)ccc2[nH]1
IC50 (4'-phosphopantetheinyl transferase PptT; enzyme activity, inhibitor, fluorescence polarization; enzyme 100 nM): 440 nM

CC[C@H](C)[C@H](NC(=O)[C@H](CS)NC(=O)[C@H](CC(C)C)NC(=O)[C@H](C)NC(=O)[C@H](CCC(N)=O)NC(=O)[C@H](CC(C)C)NC(=O)[C@H](CCSC)NC(=O)[C@H](Cc1ccc(O)cc1)NC(=O)[C@@H](N)CO)C(=O)N1CCC[C@H]1C(=O)O
IC50 (H-2 class I histocompatibility antigen, K-D alpha chain, 29 (H2-K1, Mus musculus, UniProt P01902); binding, competitor, radioligand competition; purified MHC, mutant peptide, added: radiolabeled standard peptide): 67 nM

CCCCCc1cc(O)c2c(c1)OC(C)(C)C1CCC(C)=CC21 (single isomer, unassigned; (-))
IC50 (Cytochrome P450 2C19 (CYP2C19, Homo sapiens, UniProt P33261); inhibitor, probe substrate; recombinant microsomes, HEK293; unbound, corrected for fu,inc, added: omeprazole): 150 ± 30 nM

C[C@H](NC(=O)[C@H](CCC(N)=O)NC(=O)[C@H](CCCCN)NC(=O)[C@H](C)NC(=O)[C@@H]1CCCN1C(=O)[C@H](C)NC(=O)[C@H](CCCCN)NC(=O)[C@H](CCC(N)=O)NC(=O)[C@H](C)NC(=O)[C@H](CCCCN)NC(=O)[C@H](CCC(N)=O)NC(=O)[C@@H]1CCCN1C(=O)[C@H](CCC(N)=O)NC(=O)[C@H](CCCCN)NC(=O)[C@H](C)NC(=O)[C@H](CCC(N)=O)NC(=O)[C@H](CCCCN)NC(=O)[C@H](C)NC(=O)[C@@H]1CCCN1C(=O)[C@H](C)NC(=O)[C@H](CCCCN)NC(=O)[C@H](CCC(N)=O)NC(=O)[C@H](C)NC(=O)[C@H](CCCCN)NC(=O)[C@H](CO)NC(=O)[C@H](Cc1ccc(O)cc1)NC(=O)CNC(=O)CNC(=O)CN)C(=O)N[C@@H](CCCCN)C(=O)N[C@@H](CCC(N)=O)C(=O)O
kd2 (binding, SPR two-state model; rVλ6Wil fibrils; 300 nM): 0.0024 s⁻¹

CCCC[C@H]1C(=O)N2CCC[C@H]2C(=O)N[C@H](C(N)=O)CSCC(=O)N[C@@H](Cc2ccc(O)cc2)C(=O)N(C)[C@@H](Cc2ccc(OC)cc2)C(=O)N[C@@H](CCCNC(=N)N)C(=O)N(C)[C@@H](Cc2ccccc2)C(=O)N[C@@H](CC(=O)O)C(=O)N(C)[C@@H](CO)C(=O)N(C)[C@@H](Cc2ccc(O)cc2)C(=O)N[C@@H](CCC(N)=O)C(=O)N[C@@H](CO)C(=O)N(C)[C@@H](CO)C(=O)N(C)[C@@H](Cc2ccc(OC)cc2)C(=O)N[C@@H](C(C)C)C(=O)N(C)[C@@H](Cc2ccc(O)cc2)C(=O)N1C
AC50 (2,3-bisphosphoglycerate-independent phosphoglycerate mutase; biochemical): 5620 nM

NCCCC[C@H](NC(=O)CNC(=O)CNC(=O)[C@H](CCCCN)NC(=O)CNC(=O)CNC(=O)CNC(=O)[C@H](CCCCN)NC(=O)CNC(=O)CNC(=O)[C@H](CCCCN)NC(=O)CNC(=O)CNC(=O)CNC(=O)[C@H](CCCCN)NC(=O)CNC(=O)CNC(=O)[C@H](CCCCN)NC(=O)CNC(=O)CNC(=O)CNC(=O)[C@H](CCCCN)NC(=O)CNC(=O)CNC(=O)[C@H](CCCCN)NC(=O)[C@H](CO)NC(=O)[C@H](Cc1ccc(O)cc1)NC(=O)CNC(=O)CNC(=O)CN)C(=O)NCC(=O)O
kd2 (binding, SPR two-state model; rVλ6Wil fibrils; 300 nM): 1.5e-05 s⁻¹

CC(C)[C@@H]1NC(=O)[C@H](CCC(N)=O)NC(=O)[C@@H](Cc2ccc(O)cc2)NC(=O)CSC[C@@H](C(N)=O)NC(=O)[C@H](CC(=O)O)NC(=O)[C@H](CCC(=O)O)NC(=O)[C@H](Cc2c[nH]c3ccccc23)NC(=O)[C@@H]2CCCN2C(=O)[C@H](CO)N(C)C(=O)[C@H](C)NC(=O)[C@H](Cc2c[nH]c3ccccc23)NC(=O)[C@H](Cc2c[nH]c3ccccc23)NC(=O)[C@H](C(C)C)NC(=O)[C@H]([C@@H](C)O)NC1=O
AC50 (gpmI; biochemical): 4.79 nM

Cc1nc(=O)c2cc(CN(C)c3ccc(C(=O)NCC(=O)O)s3)ccc2[nH]1
IC50 (4'-phosphopantetheinyl transferase PptT; enzyme activity, inhibitor, fluorescence polarization; enzyme 100 nM): 210 nM

C[C@@H](O)[C@@H]1NC(=O)[C@H](CC(=O)O)NC(=O)[C@@H]2CCCN2C(=O)[C@H](Cc2ccc(O)cc2)NC(=O)CSC[C@@H](C(N)=O)NC(=O)[C@H](Cc2c[nH]cn2)NC(=O)[C@H](Cc2c[nH]c3ccccc23)NC(=O)[C@H](CCC(=O)O)NC(=O)[C@H](CC(=O)O)NC(=O)[C@H](Cc2ccc(O)cc2)NC(=O)[C@H](Cc2ccc(O)cc2)NC(=O)[C@H](Cc2c[nH]c3ccccc23)NC(=O)[C@H](Cc2c[nH]c3ccccc23)NC(=O)[C@H](CC(N)=O)NC1=O
AC50 (gpmI; biochemical): 3800 nM

Cc1nc(=O)c2cc(CN(C)c3ccc(C(=O)NCCNS(C)(=O)=O)s3)ccc2[nH]1
IC50 (4'-phosphopantetheinyl transferase PptT; enzyme activity, inhibitor, fluorescence polarization; enzyme 100 nM): 1130 nM

COc1ccc(C[C@@H]2NC(=O)[C@H](Cc3ccc(O)cc3)NC(=O)[C@H](CO)NC(=O)[C@H](CC(=O)O)NC(=O)[C@H](Cc3ccc(O)cc3)NC(=O)[C@H](Cc3c[nH]c4ccccc34)NC(=O)[C@@H](Cc3ccc(O)cc3)NC(=O)CSC[C@@H](C(N)=O)NC(=O)[C@H]([C@@H](C)O)NC(=O)[C@H](Cc3ccc(O)cc3)NC(=O)[C@H](CCC(N)=O)NC(=O)[C@H](C)NC(=O)[C@H]([C@@H](C)O)NC(=O)CNC(=O)[C@@H]3CCCN3C(=O)[C@H](Cc3ccc(O)cc3)NC2=O)cc1
AC50 (2,3-bisphosphoglycerate-independent phosphoglycerate mutase; biochemical): 26900 nM

CCCCCn1cc(C(=O)c2cccc3ccccc23)c2ccccc21
EC50 (Cannabinoid receptor 1 (CNR1, Homo sapiens, UniProt P21554); β-arrestin recruitment, agonist, BRET): 110 nM

N=C(N)NCCC[C@@H]1NC(=O)[C@@H](Cc2ccc(O)cc2)NC(=O)CSC[C@@H](C(=O)N2CCC[C@H]2C(=O)N[C@@H](CCCCN)C(=O)N[C@@H](CS)C(N)=O)NC(=O)[C@H](CCC(=O)O)NC(=O)[C@H](Cc2ccc(O)cc2)NC(=O)[C@H](CCCCN)NC(=O)[C@H](Cc2ccc(O)cc2)NC(=O)[C@H](Cc2ccc(O)cc2)NC(=O)[C@H](CCC(=O)O)NC(=O)[C@H](Cc2ccc(O)cc2)NC1=O
AC50 (gpmI; biochemical): 19500 nM

CC(=O)N[C@@H](CCCNC(=N)N)C(=O)N[C@@H](CCCNC(=N)N)C(=O)N[C@H](C(=O)N1Cc2ccccc2C[C@H]1C(N)=O)[C@@H](c1ccccc1)c1c[nH]c2ccccc12
EC50 (Melanocortin receptor 3 (Mus musculus, UniProt P33033); cAMP, agonist, AlphaScreen): > 100000 nM

Repeated from above:
CC(=O)N[C@@H](CCCNC(=N)N)C(=O)N[C@@H](CCCNC(=N)N)C(=O)N[C@H](C(=O)N1Cc2ccccc2C[C@H]1C(N)=O)[C@@H](c1ccccc1)c1c[nH]c2ccccc12
EC50 (Melanocortin receptor 3 (Mus musculus, UniProt P33033); cAMP, agonist, AlphaScreen): > 100000 nM
